Measured values collected from several papers.
Each numbered part is a random draw from the data of one study; scales do not carry over between parts. Substitutions count along the parent as printed.
UniProt Q9H2X6, sequence (whole entry, looked up): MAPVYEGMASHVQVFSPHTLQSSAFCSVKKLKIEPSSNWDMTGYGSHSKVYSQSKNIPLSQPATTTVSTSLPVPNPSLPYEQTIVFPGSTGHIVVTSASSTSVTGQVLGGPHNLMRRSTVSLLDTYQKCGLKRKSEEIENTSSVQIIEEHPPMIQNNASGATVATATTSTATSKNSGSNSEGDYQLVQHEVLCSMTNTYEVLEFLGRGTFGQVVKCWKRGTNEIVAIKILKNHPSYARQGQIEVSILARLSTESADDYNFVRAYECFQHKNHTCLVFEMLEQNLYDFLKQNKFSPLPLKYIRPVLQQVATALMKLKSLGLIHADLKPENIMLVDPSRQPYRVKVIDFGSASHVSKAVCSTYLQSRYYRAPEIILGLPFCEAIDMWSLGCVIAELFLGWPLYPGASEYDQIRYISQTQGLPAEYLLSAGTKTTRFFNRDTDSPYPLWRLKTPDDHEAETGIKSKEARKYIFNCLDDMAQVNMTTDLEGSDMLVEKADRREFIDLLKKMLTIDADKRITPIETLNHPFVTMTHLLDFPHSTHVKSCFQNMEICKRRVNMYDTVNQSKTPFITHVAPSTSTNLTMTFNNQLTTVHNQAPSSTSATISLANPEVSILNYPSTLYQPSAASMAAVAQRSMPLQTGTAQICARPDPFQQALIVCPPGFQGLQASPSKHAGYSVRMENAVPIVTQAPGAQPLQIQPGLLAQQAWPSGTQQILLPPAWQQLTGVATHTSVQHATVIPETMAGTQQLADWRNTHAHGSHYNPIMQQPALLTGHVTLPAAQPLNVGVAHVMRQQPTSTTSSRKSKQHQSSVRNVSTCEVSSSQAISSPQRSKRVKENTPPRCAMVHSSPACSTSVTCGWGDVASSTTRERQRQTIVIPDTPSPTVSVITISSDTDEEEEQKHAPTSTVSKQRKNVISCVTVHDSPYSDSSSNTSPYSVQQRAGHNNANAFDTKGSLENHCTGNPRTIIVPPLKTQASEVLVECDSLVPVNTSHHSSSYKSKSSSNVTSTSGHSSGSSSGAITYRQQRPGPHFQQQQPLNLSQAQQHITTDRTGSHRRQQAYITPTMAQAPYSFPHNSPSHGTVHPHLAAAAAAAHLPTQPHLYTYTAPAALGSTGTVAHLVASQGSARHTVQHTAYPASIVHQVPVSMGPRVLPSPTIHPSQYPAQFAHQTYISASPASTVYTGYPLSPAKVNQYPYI

Study 1 — technique: protein binding microarray; molecule type: double-stranded DNA, one strand shown; sample: in vitro; concentration: not given; baseline: not given; reading: higher = stronger binding
Target: Histone acetyltransferase KAT6A, both winged helices, GST fusion (KAT6A, Homo sapiens, UniProt Q92794, residues 1-181)
Setting: 8-mer, flanks averaged, mean of 2 arrays, mostly near background
Target sequence (chain): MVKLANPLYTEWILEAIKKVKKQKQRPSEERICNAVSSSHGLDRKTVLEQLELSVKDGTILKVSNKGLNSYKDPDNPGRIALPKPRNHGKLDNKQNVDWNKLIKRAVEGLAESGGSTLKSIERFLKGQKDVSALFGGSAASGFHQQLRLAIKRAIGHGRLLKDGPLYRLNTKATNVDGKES
For `ATACGAAC`, the E-score was 0.0592.
`ACTTATTG` gave an E-score of -0.0873.
`ATCTGATC` gave an E-score of -0.126.
`GCGTGAAA` gave an E-score of 0.12.
For `AACGATGG`, the E-score was -0.135.
`AAGCCATC` gave an E-score of -0.0865.
`CTGCGGGC` has an E-score of 0.165.
`AACCGCGC` gave an E-score of 0.307.

Study 2 — technique: RNA Bind-n-Seq; molecule type: RNA; sample: in vitro; concentration: 20 nM; setting: 6-mer, flanks averaged, single round; with: 150 mM LiCl; baseline: input library; reading: higher = stronger binding
Target: TAR DNA-binding protein 43, full length, His tag (TARDBP, Homo sapiens, UniProt Q13148, residues 1-414)
`GGUCAU` — result for “6-mer enrichment (R)”: 0.903.
`GGUUUC`: “6-mer enrichment (R)” 0.971.
`UACAUG`: “6-mer enrichment (R)” 0.901.
`GUCCAA` — result for “6-mer enrichment (R)”: 0.856.
`UCCUAG` — result for “6-mer enrichment (R)”: 0.845.
For `GCAUUU`, “6-mer enrichment (R)” read 0.994.
For `UAGGUG`, “6-mer enrichment (R)” read 1.21.
For `GUACGG`, “6-mer enrichment (R)” read 1.05.

Study 3 — target: CCNE2, cyclin fold, Cln2 fusion (human); technique: yeast growth competition, sequencing; sample: yeast; setting: strong parent motif; baseline: not given; reading: higher = stronger binding
Starting sequence: GMNC docking peptide (human); KNAKRNLSSEFAN; partner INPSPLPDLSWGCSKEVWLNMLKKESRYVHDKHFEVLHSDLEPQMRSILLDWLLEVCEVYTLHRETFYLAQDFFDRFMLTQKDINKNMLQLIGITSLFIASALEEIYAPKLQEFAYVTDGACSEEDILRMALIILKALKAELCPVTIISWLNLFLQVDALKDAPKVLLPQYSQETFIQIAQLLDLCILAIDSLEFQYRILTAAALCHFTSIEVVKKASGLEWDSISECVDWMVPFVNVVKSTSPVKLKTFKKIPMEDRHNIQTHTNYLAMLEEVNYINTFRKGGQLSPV
`KNAKRNLSSNFAN [E10N]` — result for “normalised enrichment score”: 0.257.
`KLAKRNLSSEFAN [N2L]`: “normalised enrichment score” 0.855.
`KNAKRNLSSEFEN [A12E]` — result for “normalised enrichment score”: 1.71.
`KNKKRNLSSEFAN [A3K]` — result for “normalised enrichment score”: 0.522.
For `KNAKRNLSSVFAN [E10V]`, “normalised enrichment score” read 1.64.
For `KNAKRMLSSEFAN [N6M]`, “normalised enrichment score” read 0.533.
`KNDKRNLSSEFAN [A3D]` — result for “normalised enrichment score”: 0.233.
Under “normalised enrichment score”, `KNAKRNLSTEFAN [S9T]` is recorded as 1.63.

Single results of other studies
With `CN(C)S(=O)(=O)c1ccc2c(c1)/C(=C/c1cc3c([nH]1)CCCC3)C(=O)N2` the remaining activity was 98.2% (Homeodomain-interacting protein kinase 2 (HIPK2, Homo sapiens, UniProt Q9H2X6); enzyme activity, inhibitor; 0.5 µM; baseline: control).

A few entries again (study 3):
`KNAKRNLSSEFEN [A12E]` — result for “normalised enrichment score”: 1.71.
`KNKKRNLSSEFAN [A3K]` — result for “normalised enrichment score”: 0.522.
For `KNAKRNLSSVFAN [E10V]`, “normalised enrichment score” read 1.64.
For `KNAKRMLSSEFAN [N6M]`, “normalised enrichment score” read 0.533.
